Published values gathered from unrelated publications.
Each numbered part is a random draw from the data of one study; scales do not carry over between parts.

Study 1
Target: Histone acetyltransferase KAT6A, winged helix 1, GST fusion (KAT6A, Homo sapiens, UniProt Q92794, residues 1-85)
Method: protein binding microarray
Form: double-stranded DNA, one strand shown
Matrix: in vitro
Tested at: not given
Setting: 8-mer, flanks averaged, mean of 2 arrays, mostly near background
Reference: not given
Reading: higher = stronger binding
Quantity: E-score
Construct (chain): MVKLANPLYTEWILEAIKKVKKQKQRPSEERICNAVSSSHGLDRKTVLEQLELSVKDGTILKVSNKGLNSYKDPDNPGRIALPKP
GACGGTAA: 0.322
GCCTCCAA: -0.074
TCTTGCAA: -0.17
ACTCGCAG: -0.0856
ATACCTGG: -0.13
ATTCTGAA: -0.0998
AAACCCGA: 0.156

Study 2
Target: PABPC1L2, full length, GST fusion (mouse, UniProt A0ABA7IW68)
Method: RNAcompete
Form: RNA
Matrix: in vitro
Tested at: 20 nM
Setting: 7-mer, probes averaged, single round
Reference: mean of 7-mers
Reading: higher = stronger binding
Quantity: 7-mer Z-score
Target sequence (chain): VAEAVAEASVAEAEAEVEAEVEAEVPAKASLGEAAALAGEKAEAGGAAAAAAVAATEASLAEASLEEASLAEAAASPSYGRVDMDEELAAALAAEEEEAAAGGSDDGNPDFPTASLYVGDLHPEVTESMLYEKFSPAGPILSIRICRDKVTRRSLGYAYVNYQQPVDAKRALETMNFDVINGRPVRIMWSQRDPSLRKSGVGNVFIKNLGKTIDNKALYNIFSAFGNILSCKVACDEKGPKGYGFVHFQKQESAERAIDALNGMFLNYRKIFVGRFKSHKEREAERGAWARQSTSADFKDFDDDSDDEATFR
CGGAACC: -0.00833
AGCUGAG: 0.00979
AACGCAC: 0.0986
GCCAUCU: -0.354

Single results of other studies
SALL4 full length isoform A: Sal-like protein 4, full length isoform A (SALL4, Homo sapiens, UniProt Q9UJQ4, residues 1-1053)
UniProt Q9UJQ4, sequence (whole entry, looked up): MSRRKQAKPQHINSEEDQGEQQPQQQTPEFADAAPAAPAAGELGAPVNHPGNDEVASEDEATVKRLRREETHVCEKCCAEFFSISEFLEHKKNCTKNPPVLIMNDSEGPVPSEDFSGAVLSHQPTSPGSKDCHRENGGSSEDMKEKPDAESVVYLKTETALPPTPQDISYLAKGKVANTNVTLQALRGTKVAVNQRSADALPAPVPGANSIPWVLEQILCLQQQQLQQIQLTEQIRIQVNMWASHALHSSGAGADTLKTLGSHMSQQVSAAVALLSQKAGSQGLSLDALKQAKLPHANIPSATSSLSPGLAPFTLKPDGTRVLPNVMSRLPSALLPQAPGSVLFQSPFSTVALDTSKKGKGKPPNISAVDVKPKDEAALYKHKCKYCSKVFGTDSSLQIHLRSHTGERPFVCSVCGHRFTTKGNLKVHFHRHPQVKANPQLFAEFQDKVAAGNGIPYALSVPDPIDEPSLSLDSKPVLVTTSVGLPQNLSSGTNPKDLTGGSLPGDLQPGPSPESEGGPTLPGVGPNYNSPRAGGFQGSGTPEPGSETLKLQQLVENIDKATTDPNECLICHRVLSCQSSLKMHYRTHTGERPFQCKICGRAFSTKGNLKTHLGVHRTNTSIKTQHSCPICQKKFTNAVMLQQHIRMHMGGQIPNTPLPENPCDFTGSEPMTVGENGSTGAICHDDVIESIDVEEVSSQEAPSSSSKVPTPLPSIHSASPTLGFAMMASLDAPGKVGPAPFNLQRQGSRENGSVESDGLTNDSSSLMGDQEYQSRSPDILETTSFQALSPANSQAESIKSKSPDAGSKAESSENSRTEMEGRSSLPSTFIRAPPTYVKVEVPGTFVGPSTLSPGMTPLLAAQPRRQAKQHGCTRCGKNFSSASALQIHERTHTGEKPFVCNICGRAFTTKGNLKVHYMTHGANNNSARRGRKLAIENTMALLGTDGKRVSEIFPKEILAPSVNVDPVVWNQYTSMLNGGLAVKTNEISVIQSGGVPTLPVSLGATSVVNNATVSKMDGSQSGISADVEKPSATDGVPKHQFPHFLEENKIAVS
GCATTTGA
E-score (SALL4 full length isoform A; universal PBM; double-stranded DNA, one strand shown, in vitro; 600 nM, 8-mer, flanks averaged, mean of replicates; higher = stronger binding): 0.0557

PhoQ, residues 284 288 289 292 302 303 NLMGRA
fold induction (PhoP, residues 12 14 15 18 19 SGWQI (Escherichia coli, UniProt P23836); Sort-seq, refers to: YFP reporter; E. coli; PhoQ-PhoP variant library, together with: 10 µM Mg2+; reference: high Mg2+ state, higher = stronger signaling): 6.82

AATTTCAG
E-score (SALL4 full length isoform A; universal PBM; double-stranded DNA, one strand shown, in vitro; 600 nM, 8-mer, flanks averaged, mean of replicates; higher = stronger binding): 0.203

Some of these lines once more (single results of other studies):
PhoQ, residues 284 288 289 292 302 303 NLMGRA
fold induction (PhoP, residues 12 14 15 18 19 SGWQI (Escherichia coli, UniProt P23836); Sort-seq, refers to: YFP reporter; E. coli; PhoQ-PhoP variant library, together with: 10 µM Mg2+; reference: high Mg2+ state, higher = stronger signaling): 6.82
